Results gathered from unrelated publications.
Each numbered part is a random draw from the data of one study; scales do not carry over between parts. Positions count from the first letter of the parent shown.

Series 1
Target: Sal-like protein 4, full length isoform A (SALL4, Homo sapiens, UniProt Q9UJQ4, residues 1-1053)
Sequence of UniProt Q9UJQ4 (whole entry, looked up): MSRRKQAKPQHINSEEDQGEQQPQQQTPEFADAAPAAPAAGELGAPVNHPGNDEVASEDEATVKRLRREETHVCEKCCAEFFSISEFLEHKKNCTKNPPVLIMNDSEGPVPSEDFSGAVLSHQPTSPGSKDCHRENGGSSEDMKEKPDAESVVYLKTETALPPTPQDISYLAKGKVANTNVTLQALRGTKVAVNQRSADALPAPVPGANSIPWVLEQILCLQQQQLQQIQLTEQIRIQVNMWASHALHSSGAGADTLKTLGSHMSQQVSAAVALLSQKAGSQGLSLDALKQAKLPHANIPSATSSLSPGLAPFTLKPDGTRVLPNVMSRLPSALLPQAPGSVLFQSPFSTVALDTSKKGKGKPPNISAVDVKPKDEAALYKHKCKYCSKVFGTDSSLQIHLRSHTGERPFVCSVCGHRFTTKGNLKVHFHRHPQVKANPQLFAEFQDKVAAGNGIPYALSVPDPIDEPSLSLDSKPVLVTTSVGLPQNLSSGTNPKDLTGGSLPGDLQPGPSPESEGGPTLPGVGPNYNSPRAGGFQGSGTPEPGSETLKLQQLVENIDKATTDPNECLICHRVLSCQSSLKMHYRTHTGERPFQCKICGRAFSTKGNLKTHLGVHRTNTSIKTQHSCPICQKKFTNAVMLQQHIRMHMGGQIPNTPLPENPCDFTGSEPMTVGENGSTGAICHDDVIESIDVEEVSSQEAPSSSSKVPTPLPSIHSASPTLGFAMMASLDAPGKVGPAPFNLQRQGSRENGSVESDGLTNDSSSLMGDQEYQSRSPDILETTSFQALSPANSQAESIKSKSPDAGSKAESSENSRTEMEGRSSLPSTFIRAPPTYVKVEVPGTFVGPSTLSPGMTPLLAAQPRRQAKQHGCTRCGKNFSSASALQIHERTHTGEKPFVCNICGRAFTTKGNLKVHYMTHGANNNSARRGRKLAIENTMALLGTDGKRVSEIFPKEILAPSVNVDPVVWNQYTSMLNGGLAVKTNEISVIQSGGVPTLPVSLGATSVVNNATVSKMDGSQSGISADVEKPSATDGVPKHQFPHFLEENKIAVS
Method: universal PBM
Molecule type: double-stranded DNA, one strand shown
Matrix: in vitro
Tested at: 600 nM
Notes: 8-mer, flanks averaged, mean of replicates
Direction: higher = stronger binding
Oligonucleotide	E-score
ACATCTAA	0.225
TAGAGCAA	-0.0123
TGGCTCAA	-0.0636
ACTAAGAG	-0.0382
ATTTTCCC	0.162
CCGGTAGA	-0.237
AGTTACAA	0.162
GTGGTTGA	-0.0545
AGAACGAA	0.0958
GAGCCATA	0.0168
ATTACTTG	0.237
GTGAGGGA	-0.158
AATAGGCT	0.0527
CAAACTGC	-0.0524
CAGAACCG	-0.23
GCACTGCA	-0.24
GGACAACC	-0.283
GCCACGAC	-0.106

Series 2
Target: Interferon regulatory factor 3, full length, phosphomimetic (IRF3, Homo sapiens, UniProt Q14653, residues 1-427, S386D/S396D/S398D/S402D/T404D/S405D)
Method: protein-binding microarray
Molecule type: double-stranded DNA, one strand shown
Matrix: in vitro
Tested at: 2540 nM top
Notes: 60-bp whole probe
With: salmon DNA 0.4 mg/ml
Relative to: random background probes
Direction: higher = stronger binding
Constant ends, left off below: GCCTAGCAC … GTCTTGATTCGCTTGACGCTGCTG
Residues (chain): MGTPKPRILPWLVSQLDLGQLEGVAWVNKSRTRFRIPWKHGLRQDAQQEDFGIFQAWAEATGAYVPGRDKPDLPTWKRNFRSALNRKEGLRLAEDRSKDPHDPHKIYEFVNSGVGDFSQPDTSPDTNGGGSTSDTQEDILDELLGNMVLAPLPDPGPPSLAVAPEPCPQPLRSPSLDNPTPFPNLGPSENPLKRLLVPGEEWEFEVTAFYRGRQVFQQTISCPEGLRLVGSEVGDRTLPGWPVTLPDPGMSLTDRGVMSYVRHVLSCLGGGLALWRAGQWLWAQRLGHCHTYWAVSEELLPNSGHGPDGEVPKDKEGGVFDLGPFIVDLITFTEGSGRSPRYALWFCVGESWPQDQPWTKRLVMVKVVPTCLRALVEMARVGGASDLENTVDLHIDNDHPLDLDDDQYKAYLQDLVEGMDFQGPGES
Oligonucleotide	fitted relative affinity
GATGGTTTCGGGACTGGGGACGTGCTA	4.33 z-score
GACGGACTGGACACTGGGGGCGTGCTA	-0.444 z-score
GACGGTTTCGGGACTGGGGCCGTGCTA	4.7 z-score
TTAGGTCTACTACTGCTTTAGTGCTAG	-0.439 z-score
GACGATTTCCGTATCGAGACGTGCTAG	3.46 z-score
CACGGACTGCTTTTCCTGACGTGCTAG	-0.139 z-score
CCAGGAAAAGGGATTCAGTTGTGCTAG	-0.0789 z-score
GAATGTCCTCCTCTCTCTTTGTGCTAG	0.916 z-score
TTCGCTTTCTTTACCACATTGTGCTAG	2.25 z-score
GGTCTTTCCGATTAGTCCCCGTGCTAG	3.42 z-score
AACGGTTTCGGTTCCGGGACGTGCTAG	10 z-score
GACGGTCTCGGGATCGGGACGTGCTAG	0.199 z-score
TGAGATTTCAGTTTCGATTAGTGCTAG	5.82 z-score
GACGGACTTGGTATCGGGACGTGCTAG	0.331 z-score
TCACCCTTTGCTTTCCTACTGTGCTAG	2.39 z-score
GACGATCTCAGTCTCGAAACGTGCTAG	1.09 z-score
GCCTTTATATACCTGAATATGTGCTAG	0.737 z-score
TCATAACTTATTCTCTAACTGTGCTAG	0.518 z-score
TCAGCTTTCTCTTTCACACTGTGCTAG	3.19 z-score
GACGATTCCAGTTTCGCGACGTGCTAG	2.24 z-score

Series 3
Target: CCNA2, cyclin fold, Cln2 fusion (human)
Method: yeast growth competition, sequencing
Matrix: yeast
Notes: strong parent motif
Relative to: not given
Direction: higher = stronger binding
Parent: E2F1 docking peptide (human); PPVKRRLDFETDH
Substitution	normalised enrichment score
PPVYRRLDFETDH [K4Y]	5.19
PPVKWRLDFETDH [R5W]	0.276
PPVKRRLDFRTDH [E10R]	6.04
PPCKRRLDFETDH [V3C]	5.52
PPVKRRLDCETDH [F9C]	0.391
PPVKRRDDFETDH [L7D]	-0.0576
PPVKRRLDFEEDH [T11E]	5.57
PPVKRRLDAETDH [F9A]	0.49
PPVKRRLKFETDH [D8K]	5.93
PPVKRRLCFETDH [D8C]	6.28
PPVPRRLDFETDH [K4P]	4.12
PTVKRRLDFETDH [P2T]	6.03
PPVKCRLDFETDH [R5C]	3.71
PPMKRRLDFETDH [V3M]	4.98
PPVKPRLDFETDH [R5P]	-0.356

Series 4
Target: Ras GTPase-activating protein-binding protein 1, C-terminal RGG region (G3BP1, Homo sapiens, UniProt Q13283)
Sequence of UniProt Q13283 (whole entry, looked up): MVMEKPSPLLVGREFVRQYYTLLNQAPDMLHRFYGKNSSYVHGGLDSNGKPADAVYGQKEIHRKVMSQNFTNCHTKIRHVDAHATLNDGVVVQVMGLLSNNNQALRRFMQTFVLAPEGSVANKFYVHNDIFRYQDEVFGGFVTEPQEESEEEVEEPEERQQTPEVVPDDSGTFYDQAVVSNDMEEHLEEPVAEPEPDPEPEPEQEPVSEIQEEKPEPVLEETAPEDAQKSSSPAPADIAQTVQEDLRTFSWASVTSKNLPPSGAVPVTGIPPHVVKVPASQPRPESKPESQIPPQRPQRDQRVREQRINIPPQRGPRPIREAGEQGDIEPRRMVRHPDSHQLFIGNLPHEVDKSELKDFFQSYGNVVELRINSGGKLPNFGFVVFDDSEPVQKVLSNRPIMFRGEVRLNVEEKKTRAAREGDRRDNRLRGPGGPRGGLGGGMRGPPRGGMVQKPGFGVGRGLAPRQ
Method: RNA Bind-n-Seq
Molecule type: RNA
Matrix: in vitro
Tested at: 1 µM
Notes: whole 134-nt RNA, ends assumed
With: 150 mM KCl
Relative to: input library
Direction: higher = stronger binding
Constant ends, left off below: GGGAGUUCUACAGUCCGACGAUC … UGGAAUUCUCGGGUGUCAAGG
Oligonucleotide	log2 enrichment
AGUCCUGUGCUACACAUCGUAUGUACCGAAUCGGAAAAAAAGGAAAAAAAGGAAAGGAAAGUAUUAUGUUACGCCGUUCGGAUCUGCACU	-2.21
CUCAAGUCCUGUGCUACACAUCGUAUGUACCGAAUCGGGUGGGUUUGGGAGGGAAAGUAUUAUGUUACGCCGUUCGGAUCUGCACUUCCA	1.69
CACAGACCACACGCACCCACACAGACACAGAGGGAAGGGGUUGGGAUGGGGACAGGGUGCACAGCAGGGCGGGGUAGGACCCCAGCCCCU	-0.403
AGUCCUGUGCUACACAUCGUAUGUACCGAAUCAAACCCCCAAACCCAAACCCCCAAAAAAGUAUUAUGUUACGCCGUUCGGAUCUGCACU	-1.31
CACAGACAACACGCACCCACACAGACACAGAGGGAAGGGGUUGGGGUGGGGACAGGGUGCACAGCAGGGCGGGGUAGGACCCCAGCCCCU	0.0078
UGGCCCUGGUGGCAUGCGGGGAGGAAGAGGUGGCCUCAUGGAUCGUGGUGGUGCCGGUGGAAUGUUCAGAGGUGGCCGUGGUGGAGACAG	2.16
UAACUUUAGAGGAGGAUCUGAUGGAUAUGGCAGUGGACGUGGAUUUGGGGUUGGCUAUAAUGGGUAUGGAGGAGGACCUGGAGGUGGCAA	-1.19
AGUCCUGUGCUACACAUCGUAUGUACCGAAUCGGGUUUUGGGUUUUGGGGUUUUGGGAAAGUAUUAUGUUACGCCGUUCGGAUCUGCACU	0.662
UCCUGUGCUACACAUCGUAUGUACCGAAUCGGGGAAAAAGGGGAAAAAAAGGGGUGGGGAAAGUAUUAUGUUACGCCGUUCGGAUCUGCA	1.48
CUGUGCUACACAUCGUAUGUACCGAAUCGGGAAAAAAAGGGGAAAAAAAGGAAAAAAAGGGGAAAGUAUUAUGUUACGCCGUUCGGAUCU	-1.18
AGUCCUGUGCUACACAUCGUAUGUACCGAAUCGGAAAAAGGAAAAAGGGGAAAAAGGGAAAGUAUUAUGUUACGCCGUUCGGAUCUGCAC	-1.62
UCCUCAAGUCCUGUGCUACACAUCGUAUGUACCGAAUCGGGGCGGCGGCGGGAAAGUAUUAUGUUACGCCGUUCGGAUCUGCACUUCCAG	-0.595
CACAGACAACACGCACCCACACAGACACAGAGGGAAGGGGUUCGGAUGGGGACAGGGUGCACAGCAGGGCGGGGUAGGACCCCAGCCCCU	1.15
UGGCCCUGGUUGCAUGCGGGGAGGAAGAGGUGGCCUCAUGGAUCGUGGUGGUCCCGGUGGAAUGUUCAGAGGUGGCCGUGGUGGAGACAG	2.32

Series 5
Target: UBE2G1 UBC core domain (UniProt P62253)
Method: yeast two-hybrid
Matrix: yeast
Notes: mostly zero background
Relative to: not given
Direction: higher = stronger interaction
B1: VPS41 RING domain (UniProt P49754); chain KGVLVDEENICESCLSPILPSDAAKPFSVVVFHCRHMFHKECLPMPSMNSAAQFCNICSAKNRGPGSAI
B2: NEURL1 RING domain (UniProt O76050); chain VTPGLGQWSDECTICYEHAVDTVIYTCGHMCLCYACGLRLKKALHACCPICRRPIKDIIKT
B3: TRIM40 RING domain (UniProt Q6P9F5); chain LQKDNQEEGVCPICQESLKEAVSTNCGHLFCRVCLTQHVEKASASGVFCCPLCRKPCSEEVLG
B4: RNF111 RING domain (UniProt Q6ZNA4); chain EGTEEDTEEKCTICLSILEEGEDVRRLPCMHLFHQVCVDQWLITNKKCPICRVDIEAQLPSE
B5: TRIM5 RING domain (UniProt Q9C035); chain LREVKLSPEGQKVDHCARHGEKLLLFCQEDGKVICWLCERSQEHRGHHTFLTEEVAREYQVKL
Residues (chain): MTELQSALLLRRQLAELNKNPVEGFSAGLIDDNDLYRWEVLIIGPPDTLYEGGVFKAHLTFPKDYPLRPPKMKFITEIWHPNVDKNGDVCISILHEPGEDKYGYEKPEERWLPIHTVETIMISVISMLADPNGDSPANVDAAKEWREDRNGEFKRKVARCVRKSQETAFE
Sequence	lacZ reporter activity
B1 (VPS41 RING domain)	0
MPIRALCTICSDFFDHSRDVAAIHCGHTFHLQCLIQWFETAPSRTCPQCRIQVGKRTIIN (TRAIP RING domain (UniProt Q9BWF2))	0
B2 (NEURL1 RING domain)	0
B3 (TRIM40 RING domain)	0
B4 (RNF111 RING domain)	0
B5 (TRIM5 RING domain)	0
VEPSEENSKDCVVCQNGTVNWVLLPCRHTCLCDGCVKYFQQCPMCRQFVQESFALC (CGRRF1 RING domain (UniProt Q99675))	0
PAELEVQASECVVCLEREAQMIFLNCGHVCCCQQCCQPLRTCPLCRQDIAQRLRIY (LRSAM1 RING domain (UniProt Q6UWE0))	0
ASLPTSEEDLCPICYAHPISAVFQPCGHKSCKACINQHLMNNKDCFFCKTTIVSVEDWE (RNF123 RING domain (UniProt Q5XPI4))	0

For quick reference, copied from above (series 1):
Oligonucleotide	E-score
GAGCCATA	0.0168
GCCACGAC	-0.106
AGTTACAA	0.162
ACATCTAA	0.225
CAGAACCG	-0.23
TAGAGCAA	-0.0123
GTGGTTGA	-0.0545
